Measured values pooled from the literature.
Protocols differ between the studies behind these lines. Values joined by “and” are separate records of one study, mostly repeats; a detail may differ.
ADRB1: Beta-1 adrenergic receptor (ADRB1, Homo sapiens, UniProt P08588)
UniProt P15056, sequence (whole entry, looked up): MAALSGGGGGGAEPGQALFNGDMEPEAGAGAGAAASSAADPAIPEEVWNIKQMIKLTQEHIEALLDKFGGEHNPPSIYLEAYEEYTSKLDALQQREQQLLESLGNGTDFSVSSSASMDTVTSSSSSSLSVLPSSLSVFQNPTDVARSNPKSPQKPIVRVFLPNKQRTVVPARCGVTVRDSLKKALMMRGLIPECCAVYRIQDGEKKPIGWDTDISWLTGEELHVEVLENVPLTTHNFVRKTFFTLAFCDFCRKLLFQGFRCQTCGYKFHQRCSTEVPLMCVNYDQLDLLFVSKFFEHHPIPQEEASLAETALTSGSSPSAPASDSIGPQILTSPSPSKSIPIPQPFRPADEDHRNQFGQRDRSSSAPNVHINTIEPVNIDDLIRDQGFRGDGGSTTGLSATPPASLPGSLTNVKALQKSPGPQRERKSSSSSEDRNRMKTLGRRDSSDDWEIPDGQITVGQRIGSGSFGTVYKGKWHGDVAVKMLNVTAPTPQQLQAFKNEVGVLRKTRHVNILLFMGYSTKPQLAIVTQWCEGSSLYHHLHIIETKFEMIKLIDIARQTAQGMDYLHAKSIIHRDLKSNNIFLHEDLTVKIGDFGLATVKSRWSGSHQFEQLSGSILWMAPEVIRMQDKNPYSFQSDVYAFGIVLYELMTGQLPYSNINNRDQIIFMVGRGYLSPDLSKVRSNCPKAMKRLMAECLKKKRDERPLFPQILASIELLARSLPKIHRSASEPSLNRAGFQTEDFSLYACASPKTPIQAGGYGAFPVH
UniProt P08588, sequence (whole entry, looked up): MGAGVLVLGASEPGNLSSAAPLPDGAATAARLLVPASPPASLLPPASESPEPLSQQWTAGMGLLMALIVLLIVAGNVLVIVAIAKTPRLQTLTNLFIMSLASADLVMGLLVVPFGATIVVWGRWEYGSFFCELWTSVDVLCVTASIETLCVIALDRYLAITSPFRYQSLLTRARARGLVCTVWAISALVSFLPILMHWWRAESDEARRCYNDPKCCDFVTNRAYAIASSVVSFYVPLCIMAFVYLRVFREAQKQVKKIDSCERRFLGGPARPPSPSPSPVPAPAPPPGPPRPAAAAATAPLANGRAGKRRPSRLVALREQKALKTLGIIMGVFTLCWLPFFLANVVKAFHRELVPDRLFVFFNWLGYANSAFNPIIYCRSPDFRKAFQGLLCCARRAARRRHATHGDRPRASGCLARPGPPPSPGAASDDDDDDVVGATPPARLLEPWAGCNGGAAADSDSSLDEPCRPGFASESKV
UniProt P62344, sequence (whole entry, looked up): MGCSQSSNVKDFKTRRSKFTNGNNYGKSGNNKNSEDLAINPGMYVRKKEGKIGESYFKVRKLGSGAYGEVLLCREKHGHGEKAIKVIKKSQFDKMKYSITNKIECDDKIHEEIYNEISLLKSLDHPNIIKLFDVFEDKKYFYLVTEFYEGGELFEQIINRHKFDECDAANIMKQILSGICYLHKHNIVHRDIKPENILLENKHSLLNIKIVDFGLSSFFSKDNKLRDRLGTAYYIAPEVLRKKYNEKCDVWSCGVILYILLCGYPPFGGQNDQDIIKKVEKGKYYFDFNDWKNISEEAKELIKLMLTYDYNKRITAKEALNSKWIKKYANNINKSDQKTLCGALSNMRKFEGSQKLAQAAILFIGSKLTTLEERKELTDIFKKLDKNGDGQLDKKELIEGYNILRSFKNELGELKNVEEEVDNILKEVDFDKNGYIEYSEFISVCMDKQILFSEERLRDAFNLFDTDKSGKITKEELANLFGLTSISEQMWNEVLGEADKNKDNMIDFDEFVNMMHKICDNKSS

| Structure (SMILES) | tested on | assay | system | setting | scale | measurement | value |
| --- | --- | --- | --- | --- | --- | --- | --- |
| C=CC[C@]1(O)CC[C@H]2[C@@H]3CCC4=CC(=O)CCC4=C3C=C[C@@]21C | A-375 |  |  | 100 µM, 36 h |  | viability | 26% |
| NCCc1cc(O)c(O)cc1O | Huh-7 |  |  | 10 µM, 24 h |  | viability | 48.7% |
| CN[C@@H]1C[C@H]2O[C@@](C)([C@@H]1OC)n1c3ccccc3c3c4c(c5c6ccccc6n2c5c31)C(=O)NC4 | BRAF (Homo sapiens, UniProt P15056) | enzyme activity, inhibitor |  | 0.5 µM | reference: control | remaining activity | 106% and 113% |
| O=C1CCO1 | Huh-7 |  |  | 10 µM, 24 h |  | viability | 98.3% |
| C[C@]1(O)CC[C@H]2[C@@H]3CCC4=CC(=O)CC[C@]4(C)[C@@]3(F)[C@@H](O)C[C@@]21C | A-375 |  |  | 100 µM, 36 h |  | viability | 82% |
| C[C@@H](O)[C@H](NC(=O)[C@H]1NC(=O)[C@H]([C@@H](C)O)NC(=O)[C@H](CCCN)NC(=O)[C@@H](Cc2c[nH]c3ccccc23)NC(=O)[C@H](Cc2ccc(O)cc2)NC(=O)[C@@H](NC(=O)[C@H](N)Cc2ccccc2)CSSC1(C)C)C(N)=O | ADRB1 | agonist |  |  |  | EC50 | ≥ 100 µM |
| CNC(=O)c1ccc(Nc2ncc(C(F)(F)F)c(NCc3nccnc3N(C)S(C)(=O)=O)n2)cc1 | CDPK1 (Plasmodium falciparum, UniProt P62344) | cell-free assay, competition with immobilised ligand |  | 0.1 µM |  | remaining binding | 85% |
| O=C1CCC(N2Cc3c(ccc4c3OCC43CCN(Cc4ccccc4)CC3)C2=O)C(=O)N1 (stereo not drawn) |  |  | male CD-1 mouse, plasma | intravenous, 1 mg/kg |  | Vd | 4.24 L/kg |
| FC(F)(F)c1cccc(N2CCNCC2)c1 | ADRB1 | agonist |  |  |  | EC50 | ≥ 100 µM |
